Experimental data collected from several papers.
Parts stem from different laboratories: compare values within a part only. Positions count from the first letter of the parent shown.

Block 1 — target: CCNB2, cyclin fold, Cln2 fusion (human); technique: yeast growth competition, sequencing; medium: yeast; setting: weak parent motif; reference: not given; reading: higher = stronger binding
Starting sequence: SCAPER docking peptide (human); SNARRSLNFGGST
Substitution	normalised enrichment score
N2L	-0.217
A3D	-0.101
F9A	0.176
S6R	0.632
G11L	0.267
L7E	0.134
S1A	0.38
A3W	0.134
S1M	0.316
T13P	0.0421
G11A	0.0442
G10T	0.153
S12R	-0.15
N8I	0.408
R5H	0.34
A3K	0.265
F9Y	-0.105
L7Q	0.723

Block 2 — technique: RNA Bind-n-Seq; molecule type: RNA; medium: in vitro; tested at: 100 nM; reference: input RNA pool; reading: higher = stronger binding
Target: RING finger protein unkempt homolog, zinc fingers 1-6, SBP tag (UNK, Homo sapiens, UniProt Q9C0B0, residues 30-357)
UniProt Q9C0B0, sequence (30-357, looked up): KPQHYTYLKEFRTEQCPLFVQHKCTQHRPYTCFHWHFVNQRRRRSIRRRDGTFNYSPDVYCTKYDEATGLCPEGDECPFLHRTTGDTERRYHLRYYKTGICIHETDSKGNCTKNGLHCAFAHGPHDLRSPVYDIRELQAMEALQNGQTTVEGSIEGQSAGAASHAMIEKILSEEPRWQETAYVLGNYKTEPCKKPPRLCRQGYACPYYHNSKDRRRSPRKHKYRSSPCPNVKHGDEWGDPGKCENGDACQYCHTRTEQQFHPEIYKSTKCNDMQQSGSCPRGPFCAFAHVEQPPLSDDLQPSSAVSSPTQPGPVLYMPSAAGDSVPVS
Setting: RNA with constant flanks, vertebrate orthologous sites, ends assumed
All sequences stand within: GGGAGUUCUACAGUCCGACGAUC … CAACAGAGGAUUGAGCAUCA
Sequence	bound/input enrichment
GCCAUCUGACUGGAUGAAGACGAUCCCAAGUUACAACCAAACCAGCAGCUCCAUGGACUUUAGAAAUUAUAUGAUGAGAGAUGAGAAUCUGGAACCACUGCCCCCAAAUUGGGAAAUGGC	0.736 ratio
CUCCCCGUUAUUCAUGAAAUACAACUUUUUAAAAUUGUGUUGCCACCACUUGUAAAAAAUAACAAAAACAAAACAAAAAAAAAAAACCCAGCAAUAUUAGAAUAAGAUGCUAAUGAAGUC	0.741 ratio
UUGGGACCAGCUCUCCAAACAAGAAUAGUAGUAAAAGAAAUAAGCAGAAUGAUAUUUGUAUAGAAAAAACAGAAGUUAAAUCAUGCAAGAUAAAUGCUGUCAGUGUUCCAGGUCCUAAAG	0.72 ratio
CUCCACCACCCCUGGGUGCCUGACUCCAGUGAAGCACUCACCAGUGCUGCAAGGAGUCCAGAGUAUUUUUUUGCUGCUUCAGUCCCCAAUGCCUUCCAGCAGAAGUGGCAGUAGACUGUU	0.308 ratio
GUCAUCUGAUUGGAUGAAGACUGUCCCAAGUUAUAACCAAACAAAUAGCUCCAUGGACUUCAGAAAUUAUAUGAUGAGAGAUGAGAAUCUGGAACCACUACCCAAAAACUGGGAGAUGGC	0.355 ratio
UGUUUUCUUUUUGUAGGUAUCAUUGCCCAAUGCCCAAGAUUUUUUAUGUUCAGUUGACUGUAGGAAAUAAUGAAUUCUUUGGUGAAGGGAAGACUCGACAAGCUGCCAGACACAAUGCUG	0.69 ratio
AUUGUAUGUAGAGAAAAAAAUUUUCAUUGACCCCAUUGUGAAAUUCUCUAGCAAUUUAUUUAGAAUCUUCAUUUUUCUCAUUCAAGCUCACUGUAUUAGUUAUUUUUAGCCCAUAAUUAA	2.51 ratio
UCUCCUAGCUCAUACCAGCAUCUUCGCUAUCAGACGUGCACAGCUUACAAAGGAACAGUCUAGUGGUAUUUUUUUAAUUUAAAACCUGCUUUUCCCAAGACUGAAAAAGAAGCUACGAUU	0.997 ratio
ACAUCAUGGGUUACUCUCAUUUCUGUAGCAGGUGGAACAUUUUGCAAAACAUGUAUACACCUAGCUGAGCUGAAUAUAAUAUAUUUUUAUUAGCCUGUAAAUAAAUGUUGUCUUCUGCAU	0.366 ratio
AUUUAAAAUGUAGCUAGUUAUAUUUAACAACCUCAUUUCUGAGUUCCUUUUUCAUUAAAGUAGCUUUCAUUUCUUUUAUUGCAGUUUUAAAAAUAUGAGUAAAUAUAAGGUUUGUGCCAG	0.328 ratio
CCGAAAGGCCAAAUUCCCUCCUCCCUUCUACUGCUUCUACCAACUGGAAGCACAGAAAACUAGAACUUCAUUUAUUUUGUUUUUUAAAGAGAUACACUGAUUUAACAUCCAAUAGGAACU	1.78 ratio

Block 3 — technique: RNA Bind-n-Seq; molecule type: RNA; medium: in vitro; tested at: 200 nM; setting: whole 134-nt RNA, ends assumed; with: 150 mM KCl; reference: input library; reading: higher = stronger binding
Target: Ras GTPase-activating protein-binding protein 1, full length (G3BP1, Homo sapiens, UniProt Q13283)
UniProt Q13283, sequence (whole entry, looked up): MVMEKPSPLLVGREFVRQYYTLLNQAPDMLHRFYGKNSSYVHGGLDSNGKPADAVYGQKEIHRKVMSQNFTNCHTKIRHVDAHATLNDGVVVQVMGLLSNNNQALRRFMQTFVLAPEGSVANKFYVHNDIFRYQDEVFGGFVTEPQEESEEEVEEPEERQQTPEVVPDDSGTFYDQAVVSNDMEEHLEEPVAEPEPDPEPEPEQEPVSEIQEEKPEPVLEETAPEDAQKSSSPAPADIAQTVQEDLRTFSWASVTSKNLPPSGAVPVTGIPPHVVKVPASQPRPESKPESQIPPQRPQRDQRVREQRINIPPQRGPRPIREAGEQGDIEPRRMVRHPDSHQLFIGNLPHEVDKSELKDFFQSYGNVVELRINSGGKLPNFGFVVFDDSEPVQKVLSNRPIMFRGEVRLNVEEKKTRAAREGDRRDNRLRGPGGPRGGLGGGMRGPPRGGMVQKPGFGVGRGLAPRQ
All sequences stand within: GGGAGUUCUACAGUCCGACGAUC … UGGAAUUCUCGGGUGUCAAGG
Sequence	log2 enrichment
CCUGUGCUACACAUCGUAUGUACCGAAUCGGGAAAAAAAGGGAAAAAAAGGAAAAAAAGGGAAAGUAUUAUGUUACGCCGUUCGGAUCUG	-0.865
GCAGGAAGUAAAAUCAAAUGGAAAUGCUUCGGAUAGUGGCAGGGGUGGGGGUUGCUAAGGAAAGGGUGGGAUGGGAGUGGGUAAAGAGUU	1.11
GAAAGAAGUAAAAACAAAUGGAAAUGCUUCGGAUAGUGGCAGGGGUGGGGGUUGCUAAGGAAAGGGUGGGAUGGGAGUGGGUAAAGAGUU	0.625
CCUGUGCUACACAUCGUAUGUACCGAAUCAAAUUUUUUUAAAUUUUUAAAUUUUUUUAAAAAAGUAUUAUGUUACGCCGUUCGGAUCUGC	-1.05
UCAAGUCCUGUGCUACACAUCGUAUGUACCGAAUCGGUUUUUUUGGAAAGGAGGAAAGUAUUAUGUUACGCCGUUCGGAUCUGCACUUCC	-0.699
AGUCCUGUGCUACACAUCGUAUGUACCGAAUCGGGAGGGAAAAAGGGAAAAAAAGGGAAAGUAUUAUGUUACGCCGUUCGGAUCUGCACU	-0.215
UUCGACGGCGCCGGGCGAGUGGCUGUUGAGCGGCGCCGCGGGAGUUCCGCAGGUUUCCCGUGUUCGCAGCGGAGCCGGAGGCCAGCUGAA	-2.37
UGGGAGGUGCAUUUUGUUUAUUUUUUUAGCUCAUUUCCAGGGGUGGGAAUUUUUUUUUAAUAUGUGUCAUGAAUAAAGUUGUUUUUGAAA	0.091
UCAAGUCCUGUGCUACACAUCGUAUGUACCGAAUCGUGUGUGUGUGUGUGUGUGAAAGUAUUAUGUUACGCCGUUCGGAUCUGCACUUCC	0.194
CUGUGCUACACAUCGUAUGUACCGAAUCGGGGUUUUUUUGGGGUUUUUGGGGAAAAAGGGGAAAGUAUUAUGUUACGCCGUUCGGAUCUG	-0.364
CUGUGCUACACAUCGUAUGUACCGAAUCGGGAAAAAAAGGGAAAAAAAGGGGAAAAAAAGGAAAGUAUUAUGUUACGCCGUUCGGAUCUG	-0.703
CAAGUCCUGUGCUACACAUCGUAUGUACCGAAUCGGGAAAAAGGGAAAGGGAGGGAAAGUAUUAUGUUACGCCGUUCGGAUCUGCACUUC	0.714
UGUGCUACACAUCGUAUGUACCGAAUCGGGGUUUUUUUGGUUUUUUUGGGGUUUUUUUGGGGAAAGUAUUAUGUUACGCCGUUCGGAUCU	-0.783
UCAAGUCCUGUGCUACACAUCGUAUGUACCGAAUCGGGGCCGGCCGGGGCCGGGAAAGUAUUAUGUUACGCCGUUCGGAUCUGCACUUCC	-0.527

Mixed results
Molecule	target	test	system	setting	scale	endpoint	value
PhoQ, residues 284 288 289 292 302 303 SCEHLI	PhoP, residues 12 14 15 18 19 LFHKL (Escherichia coli, UniProt P23836)	Sort-seq, item: YFP reporter	E. coli	PhoQ-PhoP variant library, with: 10 µM Mg2+	reference: high Mg2+ state, higher = stronger signaling	fold induction	17.2

A few entries again (block 3):
Sequence	log2 enrichment
UCAAGUCCUGUGCUACACAUCGUAUGUACCGAAUCGGUUUUUUUGGAAAGGAGGAAAGUAUUAUGUUACGCCGUUCGGAUCUGCACUUCC	-0.699
AGUCCUGUGCUACACAUCGUAUGUACCGAAUCGGGAGGGAAAAAGGGAAAAAAAGGGAAAGUAUUAUGUUACGCCGUUCGGAUCUGCACU	-0.215
UUCGACGGCGCCGGGCGAGUGGCUGUUGAGCGGCGCCGCGGGAGUUCCGCAGGUUUCCCGUGUUCGCAGCGGAGCCGGAGGCCAGCUGAA	-2.37
